Results collected from several papers.
Lines come from different studies, so protocols differ. Values joined by “and” are separate records of one study, mostly repeats; a detail may differ. Numbers after ± are the reported error.

`N=C(N)NCCC[C@H](NC(=O)[C@@H]1CCCN1C(=O)[C@H](Cc1ccccc1)NC(=O)[C@@H]1CCCN1C(=O)[C@H](Cc1c[nH]cn1)NC(=O)[C@@H](N)Cc1ccccc1)C(=O)O` has an AUC(0-inf) of 22.5 ± 6.42 ng·h/mL (Sprague-Dawley rat male, plasma; intravenous, 10 mg/kg).
For `CCCCC/C=C/C=C/C(=O)NCC(C)C`, the AUC(0-inf) was 354 ± 231 ng·h/mL (rat, sham-operated, plasma; oral, 50 mg/kg).
The AUC(0-inf) of `CC(C)(C)C(=O)Nc1ccc2[nH]c(CN3CCC(N(CCCN4CCOCC4)CC4OC(n5cnc6c(N)ncnc65)C(O)C4O)CC3)nc2c1` (stereo not shown) is reported as 2740 ± 657 ng·h/mL (Sprague-Dawley rat male, plasma; intraperitoneal, 20 mg/kg).
The AUC(0-inf) of `Cn1cc(C(N)=O)c(NC2C3CC4CC2CC(OS(=O)(=O)O)(C4)C3)c2ccnc1-2` (stereo not shown) is reported as 1140 ng·h/mL (Japanese adults, moderate hepatic impairment, plasma; oral, 150 mg single dose, fasting, Child-Pugh B).
With `COC(=O)/C=C/C(=O)c1ccc(OC)cc1` the AUC(0-inf) was 1150 ± 167 ng·h/mL (Sprague-Dawley rat, both sexes, plasma; oral, 100 mg/kg).
The AUC(0-inf) of `C#Cc1cccc(Nc2ncnc3cc(OC)c(OCCCN4CCOCC4)cc23)c1` is reported as 6150 ± 908 ng·h/mL (Sprague-Dawley rat, plasma; intravenous, 10 mg/kg).
For `Cc1cc2c(cc1C1(c3ncc(C(=O)O)cn3)CC1)C(C)(C)CCC2(C)C`, the AUC(0-inf) was 51500 ng·h/mL (rat, Sprague-Dawley, male, plasma; oral, 100 mg/kg, sesame oil vehicle).
With `CN1CCN(c2ccc(Nc3ncc(Cl)c(Nc4ccccc4P(C)(C)=O)n3)cc2Br)CC1` the AUC(0-inf) was 4340 ng·h/mL and 3650 ng·h/mL (Sprague-Dawley rat, male, plasma; oral, 25 mg/kg).
With `COc1cc(C=CC(=O)OCC2OC(OC3C(c4c(OC)cc5oc(-c6ccc(O)cc6)cc(=O)c5c4O)OC(CO)C(O)C3O)C(O)C(O)C2O)ccc1O` (stereo not shown) the AUC(0-inf) was 23.5 ± 6.42 ng·h/mL (male Sprague-Dawley rat, normal, plasma; oral, 6.8 g/kg).
`COc1ccc(S(=O)(=O)N2CCc3ccccc3C2)cc1N1CCN(C(=O)c2ccc(F)cc2C(F)(F)F)CC1` has an AUC(0-inf) of 1720 ng·h/mL (rat, plasma; intravenous, 10 mg/kg).
For `Cc1cc(/C=C/C#N)cc(C)c1Oc1nc(NC2CCN(Cc3ccc(P(C)(C)=O)cc3)CC2)nc2ccsc12`, the AUC(0-inf) was 640 ± 10.3 ng·h/mL (male Sprague-Dawley rats, plasma; intravenous, 2 mg/kg).
`O=C(O)c1cccc(S(=O)(=O)Nc2ccccc2)c1` has an AUC(0-inf) of 14800 ng·h/mL (patients with moderate liver dysfunction, plasma; intravenous, 400 mg/m^2 belinostat, single 30 min infusion, cycle 1 day -7, mean).
For `Oc1ccc2ccccc2c1/N=N/c1ccc(/N=N/c2ccccc2)cc1`, the AUC(0-inf) was 2710 ng·h/mL (Sprague-Dawley rats both sexes, whole blood; oral, 50 mg/kg).
`CONC(=O)/C=C/c1cccc(S(=O)(=O)Nc2ccccc2)c1` gave an AUC(0-inf) of 13800 ng·h/mL (patients with moderate liver dysfunction, plasma; intravenous, 400 mg/m^2 belinostat, single 30 min infusion, cycle 1 day -7, mean).
`Cc1ccccc1/N=N/c1ccc(/N=N/c2c(O)ccc3ccccc23)c(C)c1` gave an AUC(0-inf) of 10000 ng·h/mL (Sprague-Dawley rats both sexes, whole blood; oral, 50 mg/kg).
`CC1(C)C2CCC1(C)C(OC(=O)/C=C/c1ccc(O)c(O)c1)C2` (stereo not shown) has an AUC(0-inf) of 1490 ± 66.4 ng·h/mL (Sprague-Dawley rat, plasma; oral gavage, 30 mg/kg).
